Measurements pooled from the literature.
Every numbered part comes from another study and shows a few of its results, in no order. Changes are numbered by the printed parent chain.

Series 1 — technique: RNA Bind-n-Seq; form: RNA; medium: in vitro; concentration: not given; relative to: input RNA pool; direction: higher = stronger binding; measurement: bound/input enrichment
Target: RING finger protein unkempt homolog, zinc fingers 1-6, GST-SBP tag (UNK, Homo sapiens, UniProt Q9C0B0, residues 30-357)
Sequence of UniProt Q9C0B0 (30-357, looked up): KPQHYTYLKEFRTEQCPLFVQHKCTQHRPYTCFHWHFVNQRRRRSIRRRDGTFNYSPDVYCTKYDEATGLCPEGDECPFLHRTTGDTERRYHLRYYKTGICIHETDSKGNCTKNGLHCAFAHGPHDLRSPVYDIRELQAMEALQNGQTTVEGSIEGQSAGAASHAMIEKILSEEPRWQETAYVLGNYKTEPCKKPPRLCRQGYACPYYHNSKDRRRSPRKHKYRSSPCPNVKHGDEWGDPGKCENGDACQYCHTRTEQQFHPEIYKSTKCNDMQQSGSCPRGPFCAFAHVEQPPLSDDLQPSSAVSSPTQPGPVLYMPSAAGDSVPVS
Notes: RNA with constant flanks, human-mouse chimeric sites, ends assumed
All sequences stand within: GGGAGUUCUACAGUCCGACGAUC … CAACAGAGGAUUGAGCAUCA
GGGUGGGUGGUCAUUGCCGUUUGAGCUCUGCUGAUUCAUGAGUCGCCUUCAAAACUCUCGUGUAGGGUUGACAAUGUGGGGGGGUGGGGGAUCCAGCUUAUUCUUUUAUUUUCAAGUCCA: 1.06 ratio
CACACACUCUUCUGCGGCACCCUCAUUCUGCAGGCCCGGGCCUAUGUGGGACCGCACGUCCUGGCAGUGGUGACCCGCACAGGGUUCUGCACGGCAAAAGGGGGCCUGGUGAGCUCCAUC: 0.129 ratio
CAGCGCCGAGGCCGCGGUUUCCCCCUGGGCCUCCCCAGCCGCCGCCAUGGGCAUCAAAUUUUUAGAAGUUAUCAAACCAUUCUGUGCAGUUCUACCAGAAAUUCAGAAACCGGAAAGGAA: 1.36 ratio
CACGUGUCUGCAGUACUUGAUGUGGAUUACUCUCCCACUGGGAAGGAAUUUGUGUCUGCCAGCUUUGAUAAGUCUAUUAGAAUCUUUCCUGUGGACAAGAGCCGAAGCAGGGAGGUAUAU: 0.22 ratio
UUACUUUUGACUCCCUGGGUCAAGUUCCUGUGGGAAUCUUACAGGCAGUGUUUGGACCUUCUUCGAAACAAUUCUAGAGUAGAGCGCCUUUACCAUGAUAUCGCCCAACAAGCUUUCAAA: 0.19 ratio
CUCAGAGAUGUGGCAUAUCAGUAUGUGAAAAAGGGGGCUCGUAUAUUUGUGGAAGGGAAAGUGGACUAUGGUGAAUACAUGGAUAAAAACAAUGUGAGGCGACAAGCAACAACAAUCAUA: 0.322 ratio
AUCAAAUACUUUGGGGACAUCAUUAGUGUGGGACAGAGACUGUUGCAAGGAGCUCGGAUCUUAGGGAUUCCUGUUAUCAUAACGGAACAAUACCCCAAAGGUCUUGGCAGCACCGUUCAA: 0.146 ratio
GACUUUGGGACUGGUCCUCGCAACGCAGCCUACUAUAGCCCUCAUGGACAUAUAUUAGUGCUGGCUGGAUUUGGAAAUCUGAGGGGACAAAUGGAAGUAUGGGAUGUUAAAAACUACAAG: 0.433 ratio
GCUCCUCCCCGCUCUGCAGCCUGGGGACACUGGGCUGGGACCAGAAUCCAGCUUUCUUUUAAUAGUGUCAGUGUAACUGUAUCCCGUGACAUUUCAUUUUUUUUAAAAGAAAAAAACUUU: 0.56 ratio
UUAAUCCCCUUUACUGCUCCCCCACUUGUCAUGCUGAUAACAAAGUCUUAUAUCCCCGUCCUAGCUUUCACUCAGAUGGCUUAUGGAGCCGGUUUCCUAGCUUUCUUGGGUGGGAUCAGA: 0.335 ratio
AAUUUCCGCAACUGUUUUUUAGACAUUCACAUCAGACUUACAGAGCACCUGGCCACAUUCUAGGUUUGUGUUAUUUCUCAGCUAUGGAUAUGAUCAAAUGAGAACACUGCUUAACUAAUG: 0.495 ratio

Series 2 — target: CCND1, cyclin fold, Cln2 fusion (human); technique: yeast growth competition, sequencing; medium: yeast; notes: weak parent motif; relative to: not given; direction: higher = stronger binding; measurement: normalised enrichment score
Starting sequence: CDC25A docking peptide (human); PPHRRRLLFACSP; partner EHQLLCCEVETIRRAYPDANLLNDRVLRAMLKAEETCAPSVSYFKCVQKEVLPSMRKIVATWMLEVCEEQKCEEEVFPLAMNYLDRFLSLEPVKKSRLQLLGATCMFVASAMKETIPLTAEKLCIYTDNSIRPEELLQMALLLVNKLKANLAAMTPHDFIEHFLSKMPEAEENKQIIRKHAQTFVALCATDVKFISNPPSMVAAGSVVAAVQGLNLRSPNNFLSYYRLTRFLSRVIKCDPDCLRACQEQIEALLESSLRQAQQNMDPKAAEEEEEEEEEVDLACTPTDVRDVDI
PPHRRRLLFLCSP [A10L]: -0.045
PHHRRRLLFACSP [P2H]: 0.388
PPLRRRLLFACSP [H3L]: 0.359
PPHRRRLNFACSP [L8N]: 0.109
PCHRRRLLFACSP [P2C]: 0.669
PPHRRRLLFACSR [P13R]: 0.0776
GPHRRRLLFACSP [P1G]: -0.123
PPHRRRLLFACSD [P13D]: 1
APHRRRLLFACSP [P1A]: 0.000853
PPHRRRLDFACSP [L8D]: 0.162
PPHRRRLLFTCSP [A10T]: 0.304
PPHRRRVLFACSP [L7V]: 0.045
PLHRRRLLFACSP [P2L]: -0.122
PPHRRWLLFACSP [R6W]: 1.16
PPHRRRLFFACSP [L8F]: -0.0218
PPHRRRLLFAPSP [C11P]: 0.13
PQHRRRLLFACSP [P2Q]: 0.54
PPHRRRLLFMCSP [A10M]: 0.612
PPHRRQLLFACSP [R6Q]: 0.262
PPHRRRLTFACSP [L8T]: 0.204
PPHRRRLLDACSP [F9D]: -0.694
PPHERRLLFACSP [R4E]: 0.0121

Series 3 — technique: RNA Bind-n-Seq; form: RNA; medium: in vitro; concentration: 200 nM; notes: whole 134-nt RNA, ends assumed; with: 150 mM KCl; relative to: input library; direction: higher = stronger binding; measurement: log2 enrichment
Target: Fragile X messenger ribonucleoprotein 1, C-terminal low-complexity region (Fmr1, Mus musculus, UniProt P35922)
All sequences stand within: GGGAGUUCUACAGUCCGACGAUC … UGGAAUUCUCGGGUGUCAAGG
UGGCCCUGGUGGCAUGCGGGGAGGAAGAGGUGGCCUCAUGGAUCGUGUUGGUCCCGGUGGAAUGUUCAGAGGUGGCCGUGGUGGAGACAG: 0.0375
CCUGUGCUACACAUCGUAUGUACCGAAUCGGUUUUUUUGGGGUUUUUUUGGUUUUUUUGGGAAAGUAUUAUGUUACGCCGUUCGGAUCUG: -0.773
UGAGUAGAUCUAGAAAUGACAGUAUGACUUUGUUUCUAACAGCUCCAAAAUGGAUCAAAAUGUUUGUUUUGGAUGAAGCAGAUGAAAUGU: -2.66
GUCCUGUGCUACACAUCGUAUGUACCGAAUCGGAAAAAAAGGUUUUUUUGGUUUUUGGAAAGUAUUAUGUUACGCCGUUCGGAUCUGCAC: -1.35
CUCAAGUCCUGUGCUACACAUCGUAUGUACCGAAUCGGUGGAGGAAAAAAAGGAAAGUAUUAUGUUACGCCGUUCGGAUCUGCACUUCCA: -0.273
AAGUCCUGUGCUACACAUCGUAUGUACCGAAUCAAACCCAAACCCCCAAACCCAAAAAAGUAUUAUGUUACGCCGUUCGGAUCUGCACUU: -0.292
GUCCUGUGCUACACAUCGUAUGUACCGAAUCGGUUUUUGGUUUUUUUGGUUUUUUUGGAAAGUAUUAUGUUACGCCGUUCGGAUCUGCAC: -0.746
GUCCUGUGCUACACAUCGUAUGUACCGAAUCGGCCCCCGGGGCCCCCGGGGCCCCCGGGAAAGUAUUAUGUUACGCCGUUCGGAUCUGCA: -0.634
GUCCUGUGCUACACAUCGUAUGUACCGAAUCAAACCCAAACCCCCAAAUUUUUUUAAAAAAGUAUUAUGUUACGCCGUUCGGAUCUGCAC: -0.226
UGCGGGACAAAGAAGUGGCCAAUCGAUACUUUACCACUGUCUGUGUGAGAUUACUGCUUGAGAGCAAAGAAAAGAAGAUCAGGGAAUUCA: 0.385
ACCAUGCAGGUGGGCAUCUUUGGGAAGUGGGGCAAGGGGGGGAUAGGGAGGGGGGUAACACUUUGGGAACAGGUGGUCCCAUGUCGUUUC: 0.903
AAGUCCUGUGCUACACAUCGUAUGUACCGAAUCGGGAAAGGGAAAAAAAGGGUGGGAAAGUAUUAUGUUACGCCGUUCGGAUCUGCACUU: 0.614
CAAGUCCUGUGCUACACAUCGUAUGUACCGAAUCGGGGCCCGGGCCCGGCCCGGGGAAAGUAUUAUGUUACGCCGUUCGGAUCUGCACUU: -0.721
UCCUGUGCUACACAUCGUAUGUACCGAAUCGGGGAAAAAGGGAAAAAGGGGAAAAAGGGAAAGUAUUAUGUUACGCCGUUCGGAUCUGCA: -0.00693

Series 4 — target: CREBZF, bZIP domain (human); technique: DHFR protein complementation; medium: yeast; relative to: wild-type JUN-FOS pair; direction: higher = stronger binding; measurement: binding fitness
Notes: single substitutions, most at no-binding floor
Starting sequence: JUN, bZIP domain (human); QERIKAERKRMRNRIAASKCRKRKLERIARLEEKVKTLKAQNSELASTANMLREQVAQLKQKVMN; partner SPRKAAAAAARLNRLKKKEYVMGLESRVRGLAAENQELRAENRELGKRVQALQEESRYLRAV
K39C: -1.54 natural log
L38P: -1.5 natural log
A40W: -1.49 natural log
L52A: -1.5 natural log
A29Y: -1.58 natural log
K36A: -1.54 natural log
A49S: -1.55 natural log
K39V: -1.45 natural log
L45G: -1.5 natural log
V35L: -1.45 natural log
E44P: -1.51 natural log
S43L: -1.44 natural log
V56A: -1.43 natural log
V56W: -1.51 natural log
I28N: -1.53 natural log
R53I: -1.49 natural log
T37R: -1.37 natural log
A46W: -1.32 natural log
T37L: -1.35 natural log
L31C: -1.44 natural log
Q41E: -1.45 natural log
L38W: -1.53 natural log
T48E: -1.52 natural log
T37M: -1.46 natural log

Series 5 — technique: RNA Bind-n-Seq; form: RNA; medium: in vitro; concentration: 365 nM; relative to: no-protein control; direction: higher = stronger binding; measurement: RBNS enrichment (R)
Target: RNA binding protein fox-1 homolog 2, RRM domain, GST-SBP tag (RBFOX2, Homo sapiens, UniProt O43251-10, residues 100-194)
Notes: natural RNA segment, single round, ends assumed
All sequences stand within: GGGAGUUCUACAGUCCGACGAUC … UGGAAUUCUCGGGUGCCAA
Construct (chain): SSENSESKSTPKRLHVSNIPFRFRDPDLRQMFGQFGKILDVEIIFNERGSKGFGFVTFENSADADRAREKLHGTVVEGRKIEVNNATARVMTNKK
GGAUCUCAGAAUAUAUUCGUCCACCCCCUCGGCACCCCAUUACCCCGAGUCCCACCGUGUGUCCGUUGUAAGUCCGGUGGAUGUGGCUGGGGUUUCCUGGUAUUGUGGAG: 0.38
CUCCCAGGAAACCAGGCAAGGGCCCGCCAUCCUAGUGAGGCAGGCCACCGCACCUUUCCACUUCUCUUCCCCAUGAUUCCGAAGAUUGGAUUUUCCUUUUCAGGAUGCAC: 0.267
UAAUCAUAGCUACUUCAGUUUUGUGUAUCUGUUCUCUGCAGAUGGUUUGAAACUGUAUAGGAAGAACAGGUAAAGGCAGGUGGAGUGCACACAGAUCGCACCACAUGGCU: 0.473
AACAAAAACAAGUCCCAUGUCCUACUGACUCUAGUUCUUCCAGUCGUUAUCCUCUGCUGUCUCUCUGGCAUCCUAUGAAUCAGAUCAAGCCCAUGCUGUUGUUGGUUUUU: 0.754
UUCACAUCGGAGCUGCGUGUGAAAUGGAUUCAGCAUUCCGCGCCCUUGCUUUACAAUUUUAGUCCUGUGCAGACUGUGGUGUUUUUACUGAGCGUAUUUGAAUUUUUUCA: 0.499
CUGUGGAGCACACUUAAGGGAUGGGAUGGUCAGAGGCGCUCCCGAGCAAGCGGGGCAUCAUUCUCCCUUAGAUCCUAGUGUGGCUAAGCAGGGAUGUGGCAGAGAGAUCU: 0.806
CCUGCAGCUGCCUCACACCGCCCCUUGUGCUCGCCUCAUAGGUGUCUAUUUGGACUCUAAGCUCUACGGGUGACAGAUCUUGUUUCUGAAGAUGGUUUAAGUUAUAGCUU: 0.433
UGCGAGUUUUUUGUUUACUUUUCAGGUUUGUACUACAAGGUUUAAUAAUAAAAACAAAGUUUUUUGGACAUUUGUCUGUCUUGUGGAAGAUGACUGAAUGGAAUGAGCUC: 0.686
ACCUCCUGGCUAUUUUUGAUGAGAAUGAGCUUGAGCUGCUGAUGUGUGGGACUGGAGACAUCAAUGUAUCUGACUUCAAAGCCCAUGCUGUAGUGGUUGGUGGAUCCUGG: 0.898
UCCCUACCCCUGCUCCCCUCAGACAUGGGGCAGGAAACAGCAGGUGCGCUGGGCAGGAGGAAGGCAUGUGCUUCCUCCCCAGCCACCACCCCUCCCACAGCACCCAGCCU: 17
UGUUUGUCUAGUCUGUGAAUGGCCGGCUUCAGUGAUUGACAUGCUGUUAGCCCAGUGAGUUCUCCACAGUUACUGUAUGUGAUCUUCAUGGGCAGCAAAUGGAAAGUCUU: 0.256
UGUAUGGAAAUAAAACUUGUUUGAAAAUUUGGAAUAGUGCUGCUGCCAGCUUAUUUUUCUGGUACUUGUAUUUUCACAUGUUAAAUGAUCUUUAUAUAUGUUGAAUUAAC: 0.873

Single results of other studies
PhoQ, residues 284 288 289 292 302 303 TNASYF
fold induction (PhoP, residues 12 14 15 18 19 NHFIF (Escherichia coli, UniProt P23836); Sort-seq, measured: YFP reporter; E. coli; PhoQ-PhoP variant library, with: 10 µM Mg2+; relative to: high Mg2+ state, higher = stronger signaling): 12.4

A few entries again (single results of other studies):
PhoQ, residues 284 288 289 292 302 303 TNASYF
fold induction (PhoP, residues 12 14 15 18 19 NHFIF (Escherichia coli, UniProt P23836); Sort-seq, measured: YFP reporter; E. coli; PhoQ-PhoP variant library, with: 10 µM Mg2+; relative to: high Mg2+ state, higher = stronger signaling): 12.4
